Published values gathered from unrelated publications.
Each numbered part is a random draw from the data of one study; scales do not carry over between parts.

Study 1 — method: RNA Bind-n-Seq; molecule type: RNA; sample: in vitro; concentration: 365 nM; baseline: no-protein control; direction: higher = stronger binding
Target: RNA binding protein fox-1 homolog 2, RRM domain, GST-SBP tag (RBFOX2, Homo sapiens, UniProt O43251-10, residues 100-194)
Notes: natural RNA segment, single round, ends assumed
Shared flanks, not repeated: GGGAGUUCUACAGUCCGACGAUC … UGGAAUUCUCGGGUGCCAA
Construct (chain): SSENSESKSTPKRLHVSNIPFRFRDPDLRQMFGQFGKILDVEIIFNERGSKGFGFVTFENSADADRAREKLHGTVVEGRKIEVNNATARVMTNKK
For `GUGUUCUAGAUUUAGCUAUUUAUUGUUUGCGGCCUGCAUGCUGAAACAGUGCUUACGUUGUCUCCAUGUGUACGGGGCCUGUGUGGAUGGUCGUAUGUUUUGCACAUUUU`, “RBNS enrichment (R)” read 9.65.
For `GAAUACUUUUGCCCUUUGAUUAAAGACUCCAGUUAAAAAAAAUUUUAAUGAAGAAAGUGGAAAACAAGGAAGUCAAAGCAAGGAAACUAUGUAACAUGUAGGAAGUAGGA`, “RBNS enrichment (R)” read 0.677.
`GUCCCCCAUCUUCCUUUUGGUCACCUUCAUCUGUGUGUCAGUUAAGACACAGUGAGGGACAGCCCAGCUGCAAUAAAAGGGAUUUUCUAUGUCAGAAGCAGCAGGCUUUG` — result for “RBNS enrichment (R)”: 0.394.
Under “RBNS enrichment (R)”, `GCAAGGUGAGGAUUGGACUCGUGGGUGCCAGGAUCGGCUGGAGGACCUCCUGCCAAAGAGAGCUUUUGCUGAGCCGGGACACUUGCCUCUCCACACAGUGGCCCCAGCCG` is recorded as 0.504.
Under “RBNS enrichment (R)”, `GCAGUGACGUCCUCCCACGCCUGGCGGCCGUAGUGGCUGUGCUCCGGGCAGCAUCGGGCUUCAUAGGUUCGUUGCUCUCCUGAGCUUUUUUGAUUCACUUGCUUUGUUUU` is recorded as 0.721.
Under “RBNS enrichment (R)”, `CCAUGGCCCAGUCACUCAGGGGCGAGUUUCUUUUCUAACAUAGCCCUUUCUUUGCCAUGAGGCCAUGAGGCCCGCUUCAUCCUUUUCUAUUUCCCUAGAACCUUAAUGGU` is recorded as 0.268.
Under “RBNS enrichment (R)”, `CCGUCCACUGCGCGGCCUCGUCAGUCCCGGGGCUGACUGUCCCUCUCAGCUCUGCGCCUGCCAGGCAGGGCACGUGCUCACAGCCCUGGGUUGAUUUAUUUUUUUAAGGG` is recorded as 3.29.
`CAUCCUAGUUCCAGGUGUAACUUGGUGGCCAGAAUUGAGAAGAGUGCCAAAUGACCACCCGUCAGGCAGAUUGAGGGCCAUCACUUCAAACAUAGAUUAAAUUUGUUUAG` — result for “RBNS enrichment (R)”: 0.364.
For `UUGUUCUUAUUUUAAAAUUAACACUAUGUGUUCAGUUUUCUUGUGGGCUUCUGAAAGUUGCCAUCUUCCCUCCGUGGAGCUCCAUUUGCUAUUUUCAUUAUACACUAUGA`, “RBNS enrichment (R)” read 6.3.
`GAGGGGCUUCAGCCUGUCCCGGGGUUGCCUGAGGCAGAGCAAGACGGGUUCUCACCCCUGACUUCUGGAGGCUUCCCUUGAAGCUCUGUGCAAAAGGUGGGAGACAGAGC`: “RBNS enrichment (R)” 0.388.
`AGAAGACGUUCUAUGGAGAAGCACAGGGGGCAUCUAAUGAGAUUGUCAGGCCCUUGGACAAGAUCCAUAUUCUUAGAAAAUUAAUGAGUUCCAUCUCGUUAGGAAUUGGU` — result for “RBNS enrichment (R)”: 0.557.
`GUGUGUGUGCUCGCGAGCGCCAUCCACACUGGUCCUUUAGCAUUGUUUCCAUCAUAUUGCAGUGUAUGUGGGAUUUUCUGUAAAAUGGGUGUAAUUUUUCCCUUAAAAAG` — result for “RBNS enrichment (R)”: 0.54.

Study 2 — method: universal PBM; molecule type: double-stranded DNA, one strand shown; sample: in vitro; concentration: 600 nM; direction: higher = stronger binding
Target: Sal-like protein 4, full length isoform A (SALL4, Homo sapiens, UniProt Q9UJQ4, residues 1-1053)
Chain of UniProt Q9UJQ4 (whole entry, looked up): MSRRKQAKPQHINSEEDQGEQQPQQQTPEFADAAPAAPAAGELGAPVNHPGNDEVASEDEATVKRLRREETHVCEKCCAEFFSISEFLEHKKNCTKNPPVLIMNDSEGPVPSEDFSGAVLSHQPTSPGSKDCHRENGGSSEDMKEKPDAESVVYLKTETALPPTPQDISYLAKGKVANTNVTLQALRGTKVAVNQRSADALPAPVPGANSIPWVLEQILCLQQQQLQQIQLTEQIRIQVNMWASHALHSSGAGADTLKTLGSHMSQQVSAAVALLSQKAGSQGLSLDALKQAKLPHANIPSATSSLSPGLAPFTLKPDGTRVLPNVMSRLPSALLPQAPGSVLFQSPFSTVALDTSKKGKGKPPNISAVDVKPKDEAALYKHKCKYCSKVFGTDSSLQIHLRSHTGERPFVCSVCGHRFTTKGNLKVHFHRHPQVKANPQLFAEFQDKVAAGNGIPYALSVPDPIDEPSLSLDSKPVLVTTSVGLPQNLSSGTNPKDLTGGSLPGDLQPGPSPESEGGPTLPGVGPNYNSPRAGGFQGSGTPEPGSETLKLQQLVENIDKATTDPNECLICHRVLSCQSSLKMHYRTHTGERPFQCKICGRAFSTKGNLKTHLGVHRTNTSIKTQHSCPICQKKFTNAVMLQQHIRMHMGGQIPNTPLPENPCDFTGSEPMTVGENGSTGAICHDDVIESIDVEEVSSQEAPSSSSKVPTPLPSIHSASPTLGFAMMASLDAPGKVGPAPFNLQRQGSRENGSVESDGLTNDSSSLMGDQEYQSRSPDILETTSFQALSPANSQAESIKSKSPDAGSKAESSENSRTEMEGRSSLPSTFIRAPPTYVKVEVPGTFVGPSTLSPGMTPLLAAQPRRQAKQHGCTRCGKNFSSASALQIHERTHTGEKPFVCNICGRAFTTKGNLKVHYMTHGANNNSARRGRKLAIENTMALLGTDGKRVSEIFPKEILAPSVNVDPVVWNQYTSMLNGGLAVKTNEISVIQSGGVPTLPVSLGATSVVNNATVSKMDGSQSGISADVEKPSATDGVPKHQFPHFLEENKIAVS
Notes: 8-mer, flanks averaged, mean of replicates
`GACAGAGC` has an E-score of -0.1.
With `TAACAAGA` the E-score was 0.249.
The E-score of `AGGCTGAA` is reported as -0.00144.
`GCAATTCA` gave an E-score of 0.0964.
For `ATTCGTAA`, the E-score was 0.333.
`GCCCGCAA` has an E-score of -0.185.
The E-score of `GACCCCTC` is reported as -0.268.
`AACGTTAT` gave an E-score of 0.282.
The E-score of `ATGTGGTA` is reported as 0.159.
`CTAGGCAG` gave an E-score of -0.211.
With `ACAAAAAT` the E-score was 0.382.
`AATCTATC` has an E-score of 0.113.
The E-score of `ACACTAGG` is reported as -0.0441.
`GCCAACGA` has an E-score of -0.0726.
For `ATATGGGG`, the E-score was -0.0722.
For `GCCCATGA`, the E-score was -0.232.
For `AGGATGTG`, the E-score was 0.0426.

Study 3 — method: aptamer microarray, sandwich; molecule type: DNA with 2'F-ANA; sample: in vitro; concentration: 200 nM; with: Cy3 exosite-II aptamer, 400 nM; direction: higher = stronger binding; strand: GGTTGGTGTGGTTGG
Target: Prothrombin, mature alpha-thrombin (F2, Homo sapiens, UniProt P00734)
Notes: whole 15-mer aptamer, many near background
Under “mean fluorescence intensity”, `2'F-ANA at 3 6 9 13 15` is recorded as 800 a.u.
`2'F-ANA at 2 5 8 9 10 11 15`: “mean fluorescence intensity” 48.9 a.u.
For `2'F-ANA at 1 2 3 6 10 11 12 13 14 15`, “mean fluorescence intensity” read 53.6 a.u.
Under “mean fluorescence intensity”, `2'F-ANA at 2 5 6 7 9 11 13 14` is recorded as 45.5 a.u.
`2'F-ANA at 1 2 4 6 10 11 15` — result for “mean fluorescence intensity”: 62.4 a.u.
Under “mean fluorescence intensity”, `2'F-ANA at 2 3 4 6 7 9 10 13 14` is recorded as 159 a.u.
`2'F-ANA at 3 4 5 6 7 13 14`: “mean fluorescence intensity” 134 a.u.
Under “mean fluorescence intensity”, `2'F-ANA at 2 4 5 8 11 15` is recorded as 62.1 a.u.
Under “mean fluorescence intensity”, `2'F-ANA at 1 2 3 5 6 12 15` is recorded as 109 a.u.
`2'F-ANA at 1 3 5 9 11 14 15`: “mean fluorescence intensity” 45.1 a.u.
For `2'F-ANA at 6 8 11 12 14`, “mean fluorescence intensity” read 183 a.u.
Under “mean fluorescence intensity”, `2'F-ANA at 1 2 5 9 11 12` is recorded as 95.6 a.u.
`2'F-ANA at 1 2 5 7 9 14` — result for “mean fluorescence intensity”: 45 a.u.
For `2'F-ANA at 2 5 10 12 13 14 15`, “mean fluorescence intensity” read 52.5 a.u.
For `2'F-ANA at 1 2 3 5 6 8 9 11 12 13 14`, “mean fluorescence intensity” read 50.4 a.u.
Under “mean fluorescence intensity”, `2'F-ANA at 4 6 7 8 12 15` is recorded as 616 a.u.
For `2'F-ANA at 6 9 10 12 13`, “mean fluorescence intensity” read 174 a.u.
Under “mean fluorescence intensity”, `2'F-ANA at 1 2 3 6 7 11` is recorded as 165 a.u.

Study 4 — method: protein binding microarray; molecule type: double-stranded DNA, one strand shown; sample: in vitro; concentration: not given; baseline: not given; direction: higher = stronger binding
Target: Histone acetyltransferase KAT6A, winged helix 1, GST fusion (KAT6A, Homo sapiens, UniProt Q92794, residues 1-85)
Notes: 8-mer, flanks averaged, mean of 2 arrays, mostly near background
Residues (chain): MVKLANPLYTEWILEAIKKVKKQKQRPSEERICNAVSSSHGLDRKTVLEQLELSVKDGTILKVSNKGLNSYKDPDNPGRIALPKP
With `CAGATTCC` the E-score was 0.00732.
With `GGACTTAC` the E-score was 0.08.
`GTCTCTCA` has an E-score of -0.0187.
`AGTTGCAA` has an E-score of -0.0819.
`GATGAGGC` has an E-score of -0.0904.
The E-score of `ATGGCGAC` is reported as 0.00207.
`AACAGTTC` has an E-score of 0.0712.
For `GCCCCACA`, the E-score was -0.13.
For `ATCATTGG`, the E-score was -0.197.
`GCCTCTCC` gave an E-score of -0.147.
With `AACTTCTG` the E-score was -0.149.
`ATCCTGTA` has an E-score of -0.321.
The E-score of `GAACGCAC` is reported as 0.0815.
`ACGACGGG` has an E-score of 0.268.
`GGCTGGGA` gave an E-score of -0.141.
`ACCCGTGC` has an E-score of 0.304.
`CTCGCGAA` gave an E-score of -0.0332.
For `AAACCCGA`, the E-score was 0.156.
For `AATTGAGC`, the E-score was -0.141.
For `CATAGGAC`, the E-score was -0.0653.
For `GTATTTAA`, the E-score was -0.135.
The E-score of `CGGGCAGA` is reported as 0.22.
`CCCCAGAA` has an E-score of -0.217.
For `ACCTAACC`, the E-score was 0.0263.
For `ACAGGTTA`, the E-score was -0.129.

Study 5 — method: protein-binding microarray; molecule type: double-stranded DNA, one strand shown; sample: in vitro; concentration: 250 nM; notes: 60-bp whole probe; with: salmon DNA 0.4 mg/ml; baseline: random background probes; direction: higher = stronger binding; shared flanks, not repeated: GCCTAGCAC … GTCTTGATTCGCTTGACGCTGCTG
Target: Interferon regulatory factor 7, full length, phosphomimetic (IRF7, Homo sapiens, UniProt Q92985, residues 1-503, S101K/S471D/S472D/S475D/S476D/S477D/S483D/S484D/S487D)
Chain of UniProt Q92985 (whole entry, unmodified, looked up): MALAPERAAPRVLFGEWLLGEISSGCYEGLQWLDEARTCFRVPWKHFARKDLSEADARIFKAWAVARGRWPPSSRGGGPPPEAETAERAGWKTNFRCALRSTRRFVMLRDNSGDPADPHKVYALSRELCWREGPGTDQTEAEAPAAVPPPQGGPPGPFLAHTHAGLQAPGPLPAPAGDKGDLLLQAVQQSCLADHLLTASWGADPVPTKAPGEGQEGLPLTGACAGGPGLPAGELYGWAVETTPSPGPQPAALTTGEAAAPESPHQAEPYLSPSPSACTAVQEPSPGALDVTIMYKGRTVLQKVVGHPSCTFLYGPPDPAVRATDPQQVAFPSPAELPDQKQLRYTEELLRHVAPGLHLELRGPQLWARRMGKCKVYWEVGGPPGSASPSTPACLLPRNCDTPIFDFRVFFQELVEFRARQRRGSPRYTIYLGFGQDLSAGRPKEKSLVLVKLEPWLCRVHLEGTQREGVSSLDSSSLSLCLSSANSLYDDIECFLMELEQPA
The log fluorescence of `TTAGGTATCGACAATCGGTTAGTGCTA` is reported as 0.154 z-score.
With `TTAGGACTGGTTCTCCTTTAGTGCTAG` the log fluorescence was 1.4 z-score.
`TTAGATCTCAGACTGGATAAGTGCTAG` gave a log fluorescence of -0.107 z-score.
With `TTAGGTTTAGACTATCGGTTAGTGCTA` the log fluorescence was -0.0989 z-score.
The log fluorescence of `GACGGATTCGACTATCGGGACGTGCTA` is reported as 0.554 z-score.
For `TTAGGTATACTTCTCCTTTAGTGCTAG`, the log fluorescence was 0.311 z-score.
With `AAAATGATTTTTTTCATATAGTGCTAG` the log fluorescence was 0.679 z-score.
`TGAGCATACCATATCAGAAAGTGCTAG` gave a log fluorescence of -0.362 z-score.
The log fluorescence of `GACGGTTTCGGTCTAGGGACGTGCTAG` is reported as 8.41 z-score.
The log fluorescence of `TCAAGTATGTTCACTATTACTGTGCTA` is reported as -0.111 z-score.
`GACGGACAGGGTATCGGGACGTGCTAG` has a log fluorescence of -0.702 z-score.
The log fluorescence of `TGCTTTCTTTAACTCATTTTGTGCTAG` is reported as 1.9 z-score.
`TCACCTAACATGCTTCGAACTGTGCTA` gave a log fluorescence of -0.293 z-score.
With `CACGGTATCGGGTTTCGGGACGTGCTA` the log fluorescence was 3.46 z-score.
`AATGCCCTCGGTTTACAGGGGTGCTAG` has a log fluorescence of 0.958 z-score.
With `TCAAGCTTCTTTTTTATACTGTGCTAG` the log fluorescence was -0.0622 z-score.
`AAACAAGTTTCACGTCTTATAGTGCTA` gave a log fluorescence of 1.09 z-score.
